Published values from different studies.
Numbered parts are unrelated; each lists some results of a single study.

Series 1 — technique: RNA Bind-n-Seq; molecule type: RNA; matrix: in vitro; tested at: 1 µM; notes: whole 134-nt RNA, ends assumed; together with: 150 mM KCl; relative to: input library; reading: higher = stronger binding
Target: Ras GTPase-activating protein-binding protein 1, RRM domain (G3BP1, Homo sapiens, UniProt Q13283)
Chain of UniProt Q13283 (whole entry, looked up): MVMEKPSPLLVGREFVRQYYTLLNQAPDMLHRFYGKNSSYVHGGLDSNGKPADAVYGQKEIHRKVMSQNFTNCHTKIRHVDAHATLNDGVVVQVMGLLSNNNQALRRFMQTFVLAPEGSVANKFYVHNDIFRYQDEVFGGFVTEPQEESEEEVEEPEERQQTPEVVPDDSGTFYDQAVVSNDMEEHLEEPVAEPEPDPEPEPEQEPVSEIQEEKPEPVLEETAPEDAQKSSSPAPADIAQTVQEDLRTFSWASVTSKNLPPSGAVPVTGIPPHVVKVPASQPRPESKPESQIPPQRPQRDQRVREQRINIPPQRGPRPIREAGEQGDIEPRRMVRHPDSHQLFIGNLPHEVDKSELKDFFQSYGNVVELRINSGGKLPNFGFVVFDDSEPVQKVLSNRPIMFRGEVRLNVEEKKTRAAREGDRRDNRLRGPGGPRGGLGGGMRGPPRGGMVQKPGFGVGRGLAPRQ
All sequences stand within: GGGAGUUCUACAGUCCGACGAUC … UGGAAUUCUCGGGUGUCAAGG
| Sequence | log2 enrichment |
| --- | --- |
| UGCAGAAGCAUCUUCAGUUGGAGAGCCAUUGCCUCUUGCUGUGAAAUAUUUGGGAAUCUUCAGAAACCAUGAAGAAUAACCUGCUAAAGG | -0.211 |
| CCUCAAGUCCUGUGCUACACAUCGUAUGUACCGAAUCGGGGCGGCGGGGCGGAAAGUAUUAUGUUACGCCGUUCGGAUCUGCACUUCCAG | -0.302 |
| CACAUACAACACGCACCCACACAGACACAGAGGGAAGGGGUUGGGAUGGGGACAGGGUGCACAGCAGGGCGGGGUAGGACCCCAGCCCCU | -0.0695 |
| CACAGACAACACGCACCCACACAGACACAGAGGGAAGGGGUUUGGAUGGGGACAGGGUGCACAGCAGGGCGGGGUAGGACCCCAGCCCCU | -0.0283 |
| UUGUUUAUUCUGUGUCUUUUGCCUCCUUUCCUACAGAUGUCCGGCAGGAUAAUGCUGCUGGCAGAGCUGGCUCCAGUAGCCUUACACAGG | -0.0823 |
| UCAAGUCCUGUGCUACACAUCGUAUGUACCGAAUCGGUUGGGUUGGGGUUGGGGAAAGUAUUAUGUUACGCCGUUCGGAUCUGCACUUCC | 0.195 |
| CUCCUGGAGUGGAUCCGGCGCACCAUCCCCUGGCUGGAGGACCGUGUGCCCCAAAAGACUAUCCAGGAGAUGCAGCAGAAGCUGGAGGAC | -0.585 |
| UACAGGAGCUUCCUGGGACUGACCUGCCUGAUGCAAAUUUCUACUCGGACGGAAGACUUCAUCAUUGACACCCUCGAGCUUCGAAGUGAC | 0.0428 |
| AAGUCCUGUGCUACACAUCGUAUGUACCGAAUCAAAUUUUUAAACCCAAACCCAAAAAAGUAUUAUGUUACGCCGUUCGGAUCUGCACUU | -0.295 |
| UCAAGUCCUGUGCUACACAUCGUAUGUACCGAAUCGGGGAAGGAAGGGGAAGGGAAAGUAUUAUGUUACGCCGUUCGGAUCUGCACUUCC | 0.532 |

Series 2 — technique: RNA Bind-n-Seq; molecule type: RNA; matrix: in vitro; tested at: 365 nM; relative to: no-protein control; reading: higher = stronger binding
Target: RNA binding protein fox-1 homolog 2, RRM domain, GST-SBP tag (RBFOX2, Homo sapiens, UniProt O43251-10, residues 100-194)
Notes: natural RNA segment, single round, ends assumed
All sequences stand within: GGGAGUUCUACAGUCCGACGAUC … UGGAAUUCUCGGGUGCCAA
Target sequence (chain): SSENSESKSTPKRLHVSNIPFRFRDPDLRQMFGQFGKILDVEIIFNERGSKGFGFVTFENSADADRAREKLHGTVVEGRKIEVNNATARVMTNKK
| Sequence | RBNS enrichment (R) |
| --- | --- |
| CACACACCCCUCCGGACAUCCAGCGUGACGGAGCCCACACUGCCACCUUGUGGCCGCCUGAGACCCUCGCGCCCCCCGCGCCCCUCUUUUUCCCCUUGAUGGAAAUUGAC | 0.315 |
| CUUCUUUUUUCCCUUUUGUUUCUUGUCACCAAGAAGUUAUCACACUUAUACUUAUUCUAUAAGGCCAAAGCCUUAUCUAGAAAGAUCAUGAAGAGUUUGGAUAUUUUUAA | 0.524 |
| CAUCAUAAGGAAAAACUUUUAUCGCAAUGAUAGUCAGUUCACAUUAGUUUAGCACUAUAGAUAGUAUUCAGAAAUUGCUUUCUCUUUGGUAAAGAAGAUAAAUAGGUGAA | 0.506 |
| UCUUAAUUCUUGGGGAGGUUACUAAUAGCAGUAGGAUAGAAUUUUAUGAGGUUACCUACAACUACUUAAUGUACUUACACUGUAAGCCUUGUUGCUUUACCCAAGACAAA | 0.437 |
| UUGCUGAAGUAGGGUCUGAGAGAACCCUGGCAUCAGCAGACCCAGGGUGCUUCUGUCUCCUGCAGACCACGCCAGGGAGUGCAGACACCACCGUCACACACGCCCCUUUU | 0.31 |
| CCUUCCCAGUGUGGGAUCAGGCUCUGUGCCACUGCCGGGGUCUGCAGGGUGUUAGCAAAGUUUUCCCAGUUAGUAGUGCCAGUUCUAGGCUGAAUGGGAGAGUCCUCCAC | 0.924 |
| UUAUUUUACGCAUGGUCCAUAAAAUGAUUUGAUACUCUUUUAAAGUGUAUGUGGUCCAUUAGAAAGGUUAAUUCCAACAAAGCAUUUAGUUUACAGAUCAUAAUCCUAAG | 5.04 |
| CCCAGUAGUCCCUCCAUGACAGAAAACACUCCCAUGAGUCUCGAGGGAAAGCCAAGAAUAAAUGUCACUCCAGAACACAUUUUUUUUUAGCAAUAAAAUGGUGUCAAAUG | 0.47 |
| UGACUAAAUCCACACUUUCUUUAAAGAGAUGCAGAUGAAUUACUUUUCUGUUAAUAUAUAGAAAAAUACACAGGAGAACAUGCAGAUACAUGUAAAUAUCUACAUACAGG | 0.394 |
| UGGAACUAAACAGAACAACCAUUUACCCCUCCUUUUCAAACUAGAGAAUAAAGAUUUGGUUUUAGAACUGGUGGCUGGGGAGUGUUACUUUUUCUGGGGGAGCUGCGACA | 0.594 |
| AGGGGGGCAACAUGAAGGAGGUGUUCACCCGCUUCUGCACCGGCCUCACCCAGAUUGAAACUCUCUUCAAGUCUAAGGACUAUGAGUUCAUGUGGAACCCUCACCUGGGC | 0.177 |
| AUCUUUAGUCCCAGCAUAGGCAGGUGAAUCUCGAGUUUGAAGCUAGCCUGGUCUAAAAAGGAAGUUCCAAGACUGCCAGGGCCACACAGAGGAAAAAAAAAACCCUCUAG | 0.319 |

Series 3 — technique: universal PBM; molecule type: double-stranded DNA, one strand shown; matrix: in vitro; tested at: not given; reading: higher = stronger binding
Target: Sal-like protein 4, full length isoform B (SALL4, Homo sapiens, UniProt Q9UJQ4-2, residues 1-616)
Notes: 8-mer, flanks averaged, mean of replicates
Construct (chain): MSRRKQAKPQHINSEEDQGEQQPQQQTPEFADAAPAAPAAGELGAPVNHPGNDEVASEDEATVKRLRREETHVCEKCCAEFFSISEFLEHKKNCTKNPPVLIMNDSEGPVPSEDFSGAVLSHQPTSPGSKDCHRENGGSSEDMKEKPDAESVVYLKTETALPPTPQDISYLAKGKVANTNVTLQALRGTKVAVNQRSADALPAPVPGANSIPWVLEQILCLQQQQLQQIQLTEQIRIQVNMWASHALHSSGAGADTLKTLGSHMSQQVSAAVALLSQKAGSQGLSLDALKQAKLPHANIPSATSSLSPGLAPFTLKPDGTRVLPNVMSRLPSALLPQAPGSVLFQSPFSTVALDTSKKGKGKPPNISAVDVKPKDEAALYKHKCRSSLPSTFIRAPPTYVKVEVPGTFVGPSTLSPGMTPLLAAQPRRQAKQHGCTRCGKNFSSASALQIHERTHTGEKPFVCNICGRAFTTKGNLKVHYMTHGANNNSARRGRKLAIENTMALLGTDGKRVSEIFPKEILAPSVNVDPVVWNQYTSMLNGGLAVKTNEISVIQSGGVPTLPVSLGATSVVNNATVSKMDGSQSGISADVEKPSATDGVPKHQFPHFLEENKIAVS
| Sequence | E-score |
| --- | --- |
| CGGAGGGC | -0.322 |
| GGGCCTTA | -0.168 |
| AGTAGATA | 0.318 |
| CTACCTAG | 0.0528 |
| CTCTCTCC | -0.185 |
| GGACAAAA | 0.0791 |
| CGGCTCGA | -0.298 |
| CCGCTGCA | -0.186 |
| CGCGACAA | 0.0486 |
| TAATGCCA | 0.211 |
| GATCGTTA | 0.0134 |
| CAAAGATG | 0.0526 |
| CAGCTTAC | 0.0129 |
| ACCGTGCC | -0.147 |
| CCAATTAA | 0.173 |
| ACTACAAT | 0.195 |
| GCCCCGTA | -0.191 |
| CCGAATTA | 0.0644 |
| GCATCGTA | -0.0873 |
| ATGTCTTC | 0.103 |
| ATTCCGAA | 0.168 |
| CAAATAGG | 0.0453 |
| CCTTGCCA | 0.0674 |
| ACCGCCTG | -0.309 |
| ACAACCTG | 0.0727 |

Series 4 — technique: protein binding microarray; molecule type: double-stranded DNA, one strand shown; matrix: in vitro; tested at: not given; relative to: not given; reading: higher = stronger binding
Target: Histone acetyltransferase KAT6A, both winged helices, GST fusion (KAT6A, Homo sapiens, UniProt Q92794, residues 1-181)
Notes: 8-mer, flanks averaged, mean of 2 arrays, mostly near background
Residues (chain): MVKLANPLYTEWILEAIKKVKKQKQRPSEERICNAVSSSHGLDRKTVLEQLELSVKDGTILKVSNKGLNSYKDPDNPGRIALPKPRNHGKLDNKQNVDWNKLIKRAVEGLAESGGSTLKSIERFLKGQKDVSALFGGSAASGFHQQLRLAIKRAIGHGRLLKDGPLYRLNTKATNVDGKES
| Sequence | E-score |
| --- | --- |
| ACTTAGAA | -0.0944 |
| CCACAATC | -0.139 |
| CCGCATGC | 0.227 |
| GAAATTGC | 0.00648 |
| CGATCTTA | 0.162 |
| AACGGTAA | 0.175 |
| TTAATAAA | 0.0458 |
| GCCCCTTA | 0.00145 |
| AACTTGGA | -0.0305 |
| AGAGGCAG | -0.315 |
| CGTTAGCC | 0.0412 |
| AGCTATAT | -0.174 |
| TTACCAAA | -0.0723 |
| GACATATC | -0.0343 |
| GATGGGCC | -0.0618 |
| GAGATTTA | -0.0776 |
| AAACAAGC | 0.0298 |
| AACTAACT | -0.0571 |
| ATACGAAC | 0.0592 |
| AGTCCGAG | 0.0588 |
| CGTGCGCA | 0.3 |
| GTACTCAC | -0.152 |
| AGAGCCCA | -0.141 |
| CGGTAGTC | 0.186 |
| AGCGTAAC | 0.095 |

Some of these lines once more (series 3):
| Sequence | E-score |
| --- | --- |
| CGGCTCGA | -0.298 |
| CCGCTGCA | -0.186 |
| CGCGACAA | 0.0486 |
| TAATGCCA | 0.211 |
| GATCGTTA | 0.0134 |
| CAAAGATG | 0.0526 |
| CAGCTTAC | 0.0129 |
| ACCGTGCC | -0.147 |
| CCAATTAA | 0.173 |
| ACTACAAT | 0.195 |
| GCCCCGTA | -0.191 |
| CCGAATTA | 0.0644 |
